Published values pooled from the literature.
A part holds a random share of what one study measured. Changes are numbered by the printed parent chain.

Series 1 — technique: universal PBM; form: double-stranded DNA, one strand shown; medium: in vitro; concentration: not given; direction: higher = stronger binding
Target: Sal-like protein 4, full length isoform B (SALL4, Homo sapiens, UniProt Q9UJQ4-2, residues 1-616)
Setting: 8-mer, flanks averaged, mean of replicates
With `AGGGTTGG` the E-score was -0.0691.
For `GACCTCTA`, the E-score was -0.199.
The E-score of `AAATACGT` is reported as 0.155.
`ATCTGCGG` gave an E-score of -0.0282.
With `ACGAAATA` the E-score was 0.268.
For `CGACGACG`, the E-score was -0.166.
`CAACGGTC` gave an E-score of -0.0891.
The E-score of `AACCCATG` is reported as -0.11.
With `AATCACCA` the E-score was 0.0889.
`GTGTGTTA` gave an E-score of 0.226.
`AAGACCGG` gave an E-score of -0.294.
For `CCTACAGG`, the E-score was -0.274.
`ATGGGAAC` gave an E-score of 0.0857.
With `CCGATCGC` the E-score was -0.129.
For `CTGGACAC`, the E-score was -0.268.
With `CACTGATC` the E-score was -0.119.
`ACGGGGAA` has an E-score of -0.0403.
The E-score of `ACGTTCGC` is reported as -0.17.
With `AGGGATTG` the E-score was -0.131.
`GGTGAATA` gave an E-score of 0.107.
With `CGATCAAG` the E-score was -0.0472.
`CCTCGCTC` gave an E-score of -0.0157.
For `GCCCCTCC`, the E-score was -0.248.
The E-score of `CTTTTGTC` is reported as 0.0798.
The E-score of `CTTCCATC` is reported as -0.0534.

Series 2 — target: CCNB3, cyclin fold, Cln2 fusion (human); technique: yeast growth competition, sequencing; medium: yeast; setting: weak parent motif; reference: not given; direction: higher = stronger binding
Starting sequence: RB1 docking peptide (human); PKPLKKLRFDIEG; partner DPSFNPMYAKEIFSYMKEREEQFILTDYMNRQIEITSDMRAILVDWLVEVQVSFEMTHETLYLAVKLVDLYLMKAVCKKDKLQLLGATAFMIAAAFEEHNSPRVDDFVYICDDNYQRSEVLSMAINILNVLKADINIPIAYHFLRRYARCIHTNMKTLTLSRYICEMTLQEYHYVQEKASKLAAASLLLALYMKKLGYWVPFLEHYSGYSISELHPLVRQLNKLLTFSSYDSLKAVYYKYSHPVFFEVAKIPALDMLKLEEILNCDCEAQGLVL
`G13L` — result for “normalised enrichment score”: 0.223.
Under “normalised enrichment score”, `G13T` is recorded as -0.588.
Under “normalised enrichment score”, `K5N` is recorded as -0.128.
Under “normalised enrichment score”, `L7K` is recorded as 0.207.
Under “normalised enrichment score”, `F9N` is recorded as 0.549.
`G13P` — result for “normalised enrichment score”: 0.191.
`L7E` — result for “normalised enrichment score”: -0.0875.
Under “normalised enrichment score”, `P1I` is recorded as -0.0262.
Under “normalised enrichment score”, `L4A` is recorded as 0.291.
`L7Y` — result for “normalised enrichment score”: -0.124.
For `D10V`, “normalised enrichment score” read 0.345.
Under “normalised enrichment score”, `K6A` is recorded as 0.445.
`F9Q`: “normalised enrichment score” 0.326.
`L7P` — result for “normalised enrichment score”: 0.252.
`L4D` — result for “normalised enrichment score”: 0.745.
`K5A L7A`: “normalised enrichment score” 0.203.
`F9C` — result for “normalised enrichment score”: -0.0176.

Series 3 — technique: protein binding microarray; form: double-stranded DNA, one strand shown; medium: in vitro; concentration: not given; reference: not given; direction: higher = stronger binding
Target: Histone acetyltransferase KAT6A, both winged helices, GST fusion (KAT6A, Homo sapiens, UniProt Q92794, residues 1-181)
Setting: 8-mer, flanks averaged, mean of 2 arrays, mostly near background
Target sequence (chain): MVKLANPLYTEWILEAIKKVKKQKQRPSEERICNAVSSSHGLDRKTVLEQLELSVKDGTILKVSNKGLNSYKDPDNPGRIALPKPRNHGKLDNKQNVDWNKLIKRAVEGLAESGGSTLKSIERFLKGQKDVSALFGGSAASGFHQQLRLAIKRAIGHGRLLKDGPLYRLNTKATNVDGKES
`AAGCCTTG` gave an E-score of -0.023.
For `AAACGACG`, the E-score was 0.149.
The E-score of `ACCAGTAC` is reported as -0.075.
For `ATGGAACA`, the E-score was -0.2.
The E-score of `AGATACCA` is reported as -0.0196.
The E-score of `ACTGGATC` is reported as -0.0614.
For `GTGTCCGA`, the E-score was 0.113.
`GACAGATC` has an E-score of -0.0355.
With `CCTCAATC` the E-score was -0.0294.
`AACGCCGT` gave an E-score of 0.28.
The E-score of `CGCATTAC` is reported as 0.185.
With `CAACCTCG` the E-score was 0.0646.
With `GCGTTCAA` the E-score was 0.0666.
`ACCTTCCA` gave an E-score of -0.0213.
`AGGTGGAC` has an E-score of -0.16.
With `GACTACAA` the E-score was -0.136.
`GGGAGGGA` gave an E-score of -0.0426.
`AGGAGGGA` gave an E-score of -0.196.
With `GTTTAACA` the E-score was -0.108.
`ACCCTTTA` gave an E-score of -0.0628.
`AGTCGGCC` gave an E-score of 0.111.
`ACCGTCCA` gave an E-score of 0.127.
With `AGTGACCC` the E-score was -0.0807.
For `CCCCTAAG`, the E-score was -0.253.
The E-score of `ACGGTCAT` is reported as 0.215.

Series 4 — technique: competition protein-binding microarray; form: double-stranded DNA, one strand shown; medium: in vitro; concentration: 2 µM; with: Pho4 competitor, 0.05 µM; direction: higher = stronger binding
Target: Centromere-binding protein 1, full length, His-tagged (CBF1, Saccharomyces cerevisiae, UniProt P17106, residues 1-351)
Chain of UniProt P17106 (whole entry, looked up): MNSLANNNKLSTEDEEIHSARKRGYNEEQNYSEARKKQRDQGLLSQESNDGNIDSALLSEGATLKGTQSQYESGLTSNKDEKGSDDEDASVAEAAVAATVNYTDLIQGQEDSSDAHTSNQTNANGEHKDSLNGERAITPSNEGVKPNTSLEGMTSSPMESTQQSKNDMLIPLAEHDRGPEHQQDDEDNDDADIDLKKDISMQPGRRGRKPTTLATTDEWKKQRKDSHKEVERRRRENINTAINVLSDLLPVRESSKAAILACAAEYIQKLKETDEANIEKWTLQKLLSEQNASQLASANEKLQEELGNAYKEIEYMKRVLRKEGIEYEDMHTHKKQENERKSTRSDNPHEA
Setting: whole 60-bp probe, lowest competitor level
`CCCAATGGTGGCTCACACTTTTAAACTTTCTAAATTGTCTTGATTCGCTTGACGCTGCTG` gave a fluorescence intensity of 85.5 a.u.
For `TCCTTATCTGGCGTACCCGTGCAAACGTTTCCGGGCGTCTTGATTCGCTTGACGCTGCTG`, the fluorescence intensity was 98.4 a.u.
`CGCCGGCTGGCGCTTCCCGTGGAAGGGTGTTTGACTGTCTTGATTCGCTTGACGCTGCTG` has a fluorescence intensity of 50.9 a.u.
The fluorescence intensity of `CAACAACTGCTGATTCTCGTGATGGGAGAAATTAGCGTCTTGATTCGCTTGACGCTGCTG` is reported as 232 a.u.
With `CTTTCCCGATCTTGTCACATAACTTTAGCACATTTGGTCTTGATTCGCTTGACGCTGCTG` the fluorescence intensity was 76 a.u.
`GCCAGTCGCCAATGCCACCTGATTCTCTGGTCGATTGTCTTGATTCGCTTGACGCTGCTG` gave a fluorescence intensity of 77.3 a.u.
`CGGGGTTAAGTTTGGGGTGTGGGTGGCTTGCAGCAGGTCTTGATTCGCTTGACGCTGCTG` has a fluorescence intensity of 64.4 a.u.
The fluorescence intensity of `CTTTCCCGATCTTTTCACGTGGGCTTAGCACATTTGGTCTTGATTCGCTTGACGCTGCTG` is reported as 793 a.u.
The fluorescence intensity of `CTCTGCTGGGGCCCTCACGTGGCCCTGGCATTTGGCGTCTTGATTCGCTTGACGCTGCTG` is reported as 821 a.u.
`CTTCTGTAAATTTGTCCAGTGGGTGGACGCGCCCCGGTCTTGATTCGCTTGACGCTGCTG` has a fluorescence intensity of 79 a.u.
`GCACTACCATGTTTGCACGTGTTGGTGTCCTCATCAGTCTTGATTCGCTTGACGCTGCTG` has a fluorescence intensity of 1460 a.u.

Some of these lines once more (series 3):
`AACGCCGT` gave an E-score of 0.28.
For `ATGGAACA`, the E-score was -0.2.
The E-score of `ACGGTCAT` is reported as 0.215.
`ACCGTCCA` gave an E-score of 0.127.
With `CCTCAATC` the E-score was -0.0294.
`GACAGATC` has an E-score of -0.0355.
With `CAACCTCG` the E-score was 0.0646.
With `GACTACAA` the E-score was -0.136.
